Published values gathered from unrelated publications.
Several values in a cell are separate wells, animals, samples, runs or records. Numbers after ± are the reported error.

Under “PD-L1 mRNA level”, `COc1cc2c(cc1OC)-c1cc3ccc(OC)c(OCCN)c3c[n+]1CC2.[Cl-]` is recorded as “no effect” (PC-9, LLC, H460; qRT-PCR; 10 µM, 24 h).
For `CC/C(=N\NC(=O)C(C)Nc1ccccc1)c1ccc(O)c(C)c1O` (stereo not drawn), “TAZ band intensity” read 0.44 ± 0.15 (SK-OV-3; Western blot; 10 µM, 1 h, 2D culture, unit not given; reference: DMSO).
Under “late apoptotic cells”, `O=C(C[C@@H](C(F)F)n1ccc(F)n1)N1CCC(O)(Cn2cnc3c(cnn3-c3ccc(F)cc3)c2=O)CC1` is recorded as 6.37% and 11% and 6.27% (CHP-212 resistant; annexin V/PI flow cytometry; 0.1 µM, 48 h).
For `Cc1n(Cc2ccc3ccccc3c2)c2ccccc2[n+]1Cc1ccc2ccccc2c1`, “mean growth percentage” read -26.8% (NSCLC cell lines; NCI60 one-dose screen; 10 µM).
For `Cn1cc(-c2ccc(-c3cncc(Cl)c3N3CCC4(CCNC4=O)CC3)cc2)cn1`, “log2 fold change” read 3.53 (COLO 205; gene expression, microarray, item: FGFR3 mRNA; concentration not given, 2 h; reference: untreated cells).
The γH2AX-positive cells of `C=CCn1c(=O)c2cnc(Nc3ccc(N4CCN(C)CC4)cc3)nc2n1-c1ccc2c(n1)[C@@](O)(CC)CC2` is reported as 18.7% (NCI-H1048; flow cytometry; 1 µM, 24 h).
`Cc1cc(Nc2ncc(Cl)c(Nc3ccccc3S(=O)(=O)C(C)C)n2)c(OC(C)C)cc1C1CCNCC1` — result for “log2 fold change”: -2.82 (CLB-BAR; phosphoproteomics LC-MS/MS, item: ATR phosphorylation; 200 nM, 60 min; reference: untreated).
`Nc1ncnc2c1ncn2[C@@H]1O[C@H](CO)[C@@H](O)[C@H]1O`: “log2 fold change” 1.4 and 1.6 and 1.8 (activated human T cells; item: inosine; 30 µM; reference: DMSO).
Under “mean growth percentage”, `COCCOCCOCc1n(Cc2ccc3ccccc3n2)c2ccccc2[n+]1Cc1ccc2ccccc2n1` is recorded as 24.7% (NSCLC cell lines; NCI60 one-dose screen; 10 µM).
The fold change of `C=CC1=C(C)c2cc3[n-]c(cc4nc(cc5[n-]c(cc1n2)c(C)c5C=C)C(C)=C4CCC(=O)O)c(CCC(=O)O)c3C.[Zn+2]` is reported as 2.23 (SH-SY5Y; RNA-seq, item: SLC12A8 mRNA; 5 µM, 5 h; reference: untreated cells).
`COc1cc(/C=C/C(=O)N2CCC=CC2=O)cc(OC)c1OC` gave a mRNA level of 72 ± 8% (MDA-MB-468; qRT-PCR, item: ANPEP; 30 µM, 6 h; reference: time zero).
The EC50 of `CCn1cc(-c2cc(Cn3ccoc3=N)cc3c2CCN([C@@H](C)c2cc(OC)ccn2)C3=O)c(C(F)(F)F)n1` is reported as 0.163 µM (SCC-25; cell growth, inhibitor; 120 h).
For `CC#CC(=O)N1CCC[C@H]1c1nc(-c2ccc(C(=O)Nc3ccccn3)cc2)c2c(N)nccn12`, the maximum inhibition was 84.6% (TMD8 wild-type; calcium flux, FLIPR; 2 h preincubation, with: anti-IgM).
The sarcomere shortening of `O=C(O)CNC(=O)Cc1ccccc1` is reported as 0.084 µm and 0.053 µm and 0.102 µm and 0.119 µm and 0.085 µm (mouse ventricular cardiomyocytes; 100 µM, with: isoproterenol).
For `c1ccc2[nH]ccc2c1`, “mRNA level, LS mean” read 6.43 counts per million (HCT-8; RNA-seq, item: TCP11L2; concentration not given).
Under necroptosis, `CC(C)(C)C(=O)N1N=CC[C@H]1c1ccccc1` is recorded as “no effect” (L929; ATP viability; concentration not given, with: poly(I:C) and zVAD).
`COc1cc(N2CCC(N3CCN(C)CC3)CC2)ccc1Nc1ncc(Cl)c(Nc2ccccc2P(C)(C)=O)n1` has an Emax of 100% (Ba/F3 EML4-ALK v3; cell viability).
The GI50 of `O=C(/C=C/C=C/C=C/C1CCCCC1)NC1=C[C@@](O)(/C=C/C=C/C=C/C(=O)NC2=C(O)CCC2=O)[C@@H]2O[C@@H]2C1=O` is reported as 12.5 µM (NCI-H146; cell growth, CellTiter-Glo; 78 h).
`COc1cc(OC)c2c(=O)[nH]c(-c3cc(C)c(OCCO)c(C)c3)nc2c1`: “log2 fold change” 0.13 (murine AML cells; BRD4 chromatin occupancy, ChIP-seq, item: Ift57 locus; concentration not given; reference: DMSO).
`CC(C)NCC(O)c1ccc(O)c(O)c1` (stereo not drawn) has a sarcomere length of 1.8 µm (mouse ventricular cardiomyocytes; dose not given, 0.315 s).
`CC(=O)Nc1cccc(C(=O)Nc2ccc(Nc3nccc(-c4cccnc4)n3)c(C)c2)c1` has a reporter activity of 1.11 (AP1 reporter HEK293; AP1 reporter gene, inhibitor; 10 µM, 6 h, compound washed out, unit not given, with: PMA; reference: PMA alone).
Under “cAMP level difference”, `N#Cc1ccc(Oc2ccc3c(c2)COB3O)cc1` is recorded as -2.9 (PBMC; MSD; 0.01 µM, unit not given, with: PGE2; reference: DMSO).
`C=CC(=O)Nc1cccc(Oc2nc(Nc3ccc(N4CCN(C)CC4)cc3)nc3ccoc23)c1` gave a maximum inhibition of 46.7% (TMD8 wild-type; calcium flux, FLIPR; 2 h preincubation, with: anti-IgM).
For `Clc1nc(NCc2ccco2)c2[nH]cnc2n1`, the ΔPSI was 0.242 (FD iPSC-derived cardiomyocytes; alternative splicing, RNA-seq, item: DROSHA exon chr5:31521122-31521215; unit not given; reference: DMSO minus compound).
Under “polysomal mRNA level”, `Cc1ccc2c(c1)C(=O)[C@]1(O)CCN(c3ccc4nc(C)ccc4c3)C1=N2.Cl` is recorded as “no effect” (murine cells; polysome RT-qPCR, item: Myh10; concentration not given).
The AC50 of `O=c1c2ccccc2[se]n1-c1ccccc1` is reported as 1.2 µM (differentiated LUHMES MT1G-HiBiT neurons; item: MT1G; 24 h).
`CC/C(=N\NC(=O)NCc1cccc(O)c1)c1ccc(O)c(C)c1O` has a protein level of 1.08 ± 0.3 (SK-OV-3; Western blot, item: YAP; 1 µM, 1 h, 2D culture, unit not given; reference: β-actin).
`COc1cccc2c1C(=O)c1c(O)c3c(c(O)c1C2=O)C[C@@](O)(C(=O)CO)C[C@@H]3O[C@H]1C[C@H](N)[C@H](O)[C@H](C)O1`: “point of departure” 0.00437 µM (HepG2; item: glutathione; 6 h, representative mode).
For `CC(C)C[C@@H](C=O)NC(=O)[C@H](CC(C)C)NC(=O)[C@H](CC(C)C)NC(=O)OCc1ccccc1`, “polyubiquitinated FLuc level” read 1.63 (HEK293 with FLuc reporter; FLAG-ubiquitin immunoprecipitation; concentration not given, 6 h, unit not given; reference: mock).
`CCc1n(Cc2ccc3ccccc3c2)c2ccccc2[n+]1Cc1ccc2ccccc2c1`: “mean growth percentage” 56% (NSCLC cell lines; NCI60 one-dose screen; 10 µM).
`Cc1nn(-c2nc3ccc(Cl)c(Cl)c3[nH]2)c(O)c1C1OC(=O)c2ccccc21` (stereo not drawn) — result for “IFNB1 mRNA level”: 0.421 and 0.524 and 0.424 (RAW-ISG; RT-qPCR; 10 µM, 312 h, unit not given, with: HT-DNA; reference: DMSO).
`CCn1cc(-c2cc(Cn3ccnc3)cc3c2CCN([C@H](c2cc(OC)ccn2)C2CC2)C3=O)c(C(F)(F)F)n1` gave an EC50 of > 30 µM (ARH-77; cell growth, inhibitor; 120 h).
`c1ccc2cc(Cn3cc[n+](Cc4ccc5ccccc5c4)c3)ccc2c1` gave a growth of 38.1% (NSCLC cell lines; 10 µM, average over cell lines; reference: untreated).
With `[Cl-].[Cl-].[Os+2].c1cnc2c(c1)ccc1cccnc12.c1cnc2c(c1)ccc1cccnc12.c1cnc2c(c1)ccc1cccnc12` the phototherapeutic index was 1 (SK-MEL-28; cell viability, resazurin; dark, 1% O2 hypoxia; reference: dark EC50 over green EC50).
For `Cc1c(C(=O)NN2CCOCC2)nn(-c2ccc(Cl)cc2Cl)c1-c1ccc(I)cc1`, the inhibition was ~20% (CHO wild-type cells lacking MOR, membranes; basal G-protein activity; 10 µM).
`CCCCc1nc(Cl)c(CO)n1Cc1ccc(-c2ccccc2-c2nn[nH]n2)cc1` — result for “log2 fold change”: -4.29 (human PBMC; RNA-seq, item: HS3ST2 mRNA; 10 µg/mL, 24 h; reference: untreated control).
`Nc1cccc2c1CN(C1CCC(=O)NC1=O)C2=O` (stereo not drawn) has a viability of 85% (bone marrow CD138+ myeloma cells; XTT; 1 µM, phenol red-free RPMI).
`COc1cnc2cccc(N3CCc4c(cc(Cn5ccnc5C)cc4-c4cn(C)nc4C(F)(F)F)C3=O)c2c1` gave an EC50 of 14.8 µM (SCC-25; cell growth, inhibitor; 120 h).
With `CCOc1ccccc1C1CC(c2ccccc2)Nc2nc(N)nn21` (stereo not drawn) the maximum inhibition was 67% (MEF with TRE-FLAG-LMNB1; LMNB1 level, high-content screening; 250 µM).
`CCCc1n(Cc2ccc3ccccc3n2)cc[n+]1Cc1ccc2ccccc2c1` has a growth of 7.64 to 16% (NSCLC cell lines; NCI60 one-dose; 10 µM, average over cell lines).
`CCOc1cc([C@@H](CS(C)(=O)=O)N2C(=O)c3cccc(NC(C)=O)c3C2=O)ccc1OC`: “cAMP level difference” -2.64 (PBMC; MSD; 10 µM, unit not given, with: PGE2; reference: DMSO).
`O=C(NC1CCCc2c1cnn2-c1ccc(O)cc1)c1ccccn1` (stereo not drawn) — result for “number of differentially expressed genes”: 592 (Drosophila S3; RNA-Seq; 1 µM, 4 h, with: oleic acid 200 µM; reference: DMSO with oleic acid).
For `C=C[C@@]1(C)CC(=O)[C@]2(O)[C@@]3(C)[C@@H](O)CCC(C)(C)[C@@H]3[C@H](O)[C@H](OC(C)=O)[C@@]2(C)O1`, “cAMP level difference” read -0.723 (PBMC; MSD; 0.0001 µM, unit not given, with: PGE2; reference: DMSO).
`Cn1cc(Nc2nccc(-c3ccc4c(c3)CN(C3COC3)CC[C@H]4NC(=O)c3cn(C(C)(C)C)nn3)n2)cn1`: “pathway activation z-score” 4.49 (mouse splenic B cells; item: NF-κB signalling; 30 mg/kg, IgD-activated in vivo; reference: vehicle, direction not given).
For `COc1ccc(-n2nc(C(C)=O)s/c2=N\N=C(/C)c2ccc(NC(=O)c3ccc(Cl)cc3)cc2)cc1`, the toxicity was 75.1% (HepG2; 0.156 µM).
With `CCCCN1C[C@H](O)[C@@H](O)[C@@H](O)[C@H]1CO` the IC50 was 13.6 µM (sample B patient fibroblasts; acidic compartment staining, LysoTracker Red imaging; 216 h).
For `Cc1ccc(-c2cc3ccccc3c(N)n2)cc1`, “early apoptotic cells” read 2.7% (RS4;11; annexin V-FITC/PI flow cytometry, item: annexin V+ PI-; 2.5 µM, 72 h).
Under growth inhibition, `Cn1nc(C(C)(C)C)cc1NC(=O)Cc1ccc(Nc2ncnc3sccc23)cc1` is recorded as “decreased” (LC-2/ad; resazurin; concentration not given).
